Experimental data gathered from unrelated publications.
Every numbered part comes from another study and shows a few of its results, in no order. Positions count from the first letter of the parent shown.

Sample 1 — technique: RNA Bind-n-Seq; form: RNA; sample: in vitro; concentration: not given; notes: RNA with constant flanks, ends assumed; relative to: input RNA pool; direction: higher = stronger binding; measurement: bound/input enrichment
Target: RING finger protein unkempt homolog, zinc fingers 1-6, GST-SBP tag (UNK, Homo sapiens, UniProt Q9C0B0, residues 30-357)
Constant ends, left off below: GGGAGUUCUACAGUCCGACGAUC … CAACAGAGGAUUGAGCAUCA
Residues (chain): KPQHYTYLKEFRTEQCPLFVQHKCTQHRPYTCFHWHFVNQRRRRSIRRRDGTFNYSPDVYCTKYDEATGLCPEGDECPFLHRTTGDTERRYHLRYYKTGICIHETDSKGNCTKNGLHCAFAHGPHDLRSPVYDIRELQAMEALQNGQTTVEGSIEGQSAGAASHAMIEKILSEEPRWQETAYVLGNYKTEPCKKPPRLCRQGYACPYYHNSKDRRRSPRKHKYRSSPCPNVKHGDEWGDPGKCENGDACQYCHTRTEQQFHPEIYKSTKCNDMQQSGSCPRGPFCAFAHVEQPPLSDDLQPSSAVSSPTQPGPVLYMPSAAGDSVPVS
GGGCAGUUUGCUUUCCAUGUUGGUCUUCCUGCAAAAUCUGGAGUUGCUGGGGGCAUUCUUUCCGUUGUCCCCAAUGUUAUGGGUAUGAUGUGCUGGUCUCCUCCUCUGGAUAAGAUGGGC: 0.554 ratio
AAUUAUCAAGUUUUAUUCACCUCAAAUCCCACUGGGUUCUUAAAACUUGAAAAUUCAAAUUGCCGAGAAUUAUGAGACACAAUGUGAUGUUUAGUUAAAGUCAUGCUAUACCUUUCUGGG: 0.435 ratio
CUUACAAAUAAGUACUUAAAACAGAGCUUAAUGGGUAAAGCAACAGCUGUGUAAUCACAAACCCGAUGCAGAGGAGGUCUUGCCAGCACUCCAAAAUCUCUGUGUGUCCCCUCUUGACAC: 0.142 ratio
GAGAAGAAAUAUUGCAGUGAAUGAAGAUUCCUCUGCAUUUUAGCACUGCUUUUUCAACUGCCGUUGGCUUUUGAAUGAGGAUGACAAUGGAAGAGAUGAAGAAUGAAGCUGAGACCACAU: 0.423 ratio
GUGCUGCAGCAGCUCCCAGCCCCGUGCUAGGAAACAUGCCCCCAGGAGAUGGCAUGCCAGCCGGUCCCGUGCCACCAGGGUUCUUUCAGCCUUUUAUGUCGCCUCGGUACCCUGGCGGCC: 0.245 ratio
UUAGGAAAAGCUACAAAUAACACUUACUUUGAAUCCUGCUGUCAAAUGUCUGCAUCAAGACCGCACCCCUUUGUGGGAGGCCCUGAGUAUCUUCUCUUCCUCUACUGCCUAACUGUUGGU: 0.381 ratio
CGUGCACUGGGUUAAAAACGACAACGAGCACCAACCAUGAAAGAUCCAAGUCGCAGCAGUACCCGCCCAAGCAUCAUCAAUGACGAUGUGAUUAUUAACGGUCAUUCUCAUGAAGAGGAU: 0.0994 ratio
UUUCGCUUGGCGCUGGGCAGCUUCGUGGAGGAGUACAACAACAAGGUUCAGCUUGUUGGUUCCGAUGAGGAGAGUUCAGAGUUUAUUUGCAGAAACACCUUUGACCACCCAUACCCCACC: 0.178 ratio
GCAGUUACCAGUUUCAGCAGGCUUUGCUUUUAUACUGUUGUGAAAUUUCAUCUCUCUGUGCCGCACCUUCCUUUUUUCCAUUGUAGAUAUAAAAAGUGACUUUUGCCUCAUGAAAGAGUU: 1.52 ratio
UUUUUUACAUUUUUUGGGCAGCAAUUUAAAUGUUAUGACUAUGUAAACUACUUCUCUUGUCCGGUAAUUUUUUUCACCUAGAUUUUUUUCCCAAUUGAGAAAAAUAUAUACUAAACAAAA: 2.24 ratio
GGCCCGGCUGCGGCUGGAGGCCACGCGCCUCAGAGUUUGCUAUUGCGAAUACUGACCCCCCGCUUUGAAGGUAUUAGCGGAUUGUUACUGAAACAGCAUAUAGUUCCAAAUGCAGUCAGA: 0.156 ratio

Sample 2 — target: CCNE2, cyclin fold, Cln2 fusion (human); technique: yeast growth competition, sequencing; sample: yeast; notes: strong parent motif; relative to: not given; direction: higher = stronger binding; measurement: normalised enrichment score
Parent: PPP1R3F docking peptide (human); VAPRRVLFADEAL
VAPRRVLAADEAL [F8A]: -0.0486
VAPRRVLFADAAL [E11A]: 1.83
VAPRRVLFADEAA [L13A]: 1.38
VAPRRVLFAAEAL [D10A]: 1.14
VAPRKVLFADEAL [R5K]: 0.304
VAPRRVAFADEAL [L7A]: 0.599

Sample 3 — technique: EMSA with sequencing; form: double-stranded DNA, one strand shown; sample: in vitro; concentration: 10 and 20 nM; relative to: negative control set to 0; direction: higher = stronger binding; measurement: normalised bound fraction
Target: Hepatocyte nuclear factor 3-alpha (Foxa1, Mus musculus, UniProt P35582, residues 1-468, full length assumed)
Notes: whole designed probe, mean of two concentrations, ends assumed
Constant ends, left off below: GTGAGCGGTGCCCATTGATGGGGAAC … TTTCACTGGGATCGTGGGGAC
Residues (chain): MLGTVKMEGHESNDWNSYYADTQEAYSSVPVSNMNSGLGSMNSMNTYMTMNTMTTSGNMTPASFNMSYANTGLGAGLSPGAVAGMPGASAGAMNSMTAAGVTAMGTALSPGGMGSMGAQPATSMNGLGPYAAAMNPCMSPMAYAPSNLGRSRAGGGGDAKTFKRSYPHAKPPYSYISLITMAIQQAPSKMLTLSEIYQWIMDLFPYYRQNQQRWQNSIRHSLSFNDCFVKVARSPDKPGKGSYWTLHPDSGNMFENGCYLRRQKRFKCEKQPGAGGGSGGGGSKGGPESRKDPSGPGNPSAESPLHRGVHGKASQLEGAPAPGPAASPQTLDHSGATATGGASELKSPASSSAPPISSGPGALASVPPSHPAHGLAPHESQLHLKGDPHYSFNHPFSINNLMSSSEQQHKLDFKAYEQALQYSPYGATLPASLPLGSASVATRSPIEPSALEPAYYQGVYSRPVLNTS
TGTGCCTGAGCAAGCTGTGTTTGCTCATCGTCTGGACAAACCTTGTTGAATCTTGTCAGGAAACTTTTTACATTGCTCCTTGGCAAATAGTGCTATTTACTTTGTTTAAATACCTGCAGGAAATAACACAATTGAGCAAACTAGAGACAAGGACAGTTAGTGTATTGAGTATTTTTTTCTCAATTTATTATGC: 0.421 ratio
ATCCACGAACCTGGCCCTGTCTGGTAACCACAGTGAACCATCGCAAGATACAGCACTATGTGTAATGACTCACCCCAGTTGGGCTGGAAATGTGTCAACACTGGCACATCCTCAGGGACACGGAAGTGTACTTGTTTTTGGAGAGGGACTAGACCTTCATCCTTGAGGTGAAGAAGATTTTCTCTCCAGGGTG: 0.0559 ratio
ATCTTCCCCCTCTTCCTTGCCCCACCAGCTCACCTTCCCGGGTATATTGGAGATAGGAAATTAATATAAGCCGGCATTCGTTAACCCTCTTCACGCGCATACTGCTGTTTGCTCTGGATGAATCATGGTCCTTTGGCGACGCCAGGCTCCGGGAGAGCAAAGCACCGTGTCAGGGCCATGATCCGGGGTGGCC: 0.115 ratio
AGCTCCCATATTTACTCCTCTCTGTTTTTTCCCACTATACTCATTCACTCAGGAATTCATTGCTTCTTGATTAGATCATTGTCTTAAATTCATGTTTACTTTTTATTTTCTGTTTTTGATCATTGCATTTATAATTGTTTCACTTTTTCTGCCACCAATTTAATGTTTCCAAGTAACTGTTCCAATCAGTTAA: 0.391 ratio
CTTTATTTTTCAGGCCATCCGTTGCACACTGGTAAACTGCACATGTGAATGTTTTCAGCCAGGGAAGATTAACCTGAGGACTTGTGATCAGTGTAAACATGGCTGGGTGGCACATGGTGAGGAAAATCTGGGCTTTTCTTCCCGTTCTTATTATGTTCATGTTCGTGTGTGTGTGTGTGTGTGTGTGTGTGTG: 0.179 ratio
TTTCCAGCCCTTAGTTTCTGGCATTTAACCTGACTCTGGTCCCTGAATGGCATGGGAGTGCTTTCAACCACAGGTTTCCACATTCATGCAAAAGCAAACAAGTGTGATCTGACTCATTCCTACAGAGATCTTTATTTGCTTTGTGTTTCCAATGGAGAAAGAGCTTGGGAAGGGAGGATCCTAATTGTCTAAA: 0.541 ratio
CAAAAATTGTTAAATCATTAAAAAATTGTTTGAAAATATACACTTCTTGTTGTAGACCCCCACTGTACACACGACTATAAACATTGTTCCCTATGTAATCTAAAAAAGGAAACATATAATAAGAGATTTGAAAAGTCTGGACATTTCCTTCCCAACAGATATTAAAGGCAACGTCTTTAATCTAAGACATTAT: 0.0601 ratio
TTATGATCTGAGTATATATAGTAAGTACCTCCCCTTTCAGGGTAAGGCAGTAGGTAATGGTGAAAAGGTGACAGGGAAGCAACTCAGGTTGAGTAAACAACACCAAGCATATCTGACTCAAGGAATGCTTCAGAGGCCAGGGGTGCATGCCTGTAATCCCAGCACCTTGGAAGGCTGACACAGGAGGATCACT: 0.403 ratio

Sample 4 — technique: RNA Bind-n-Seq; form: RNA; sample: in vitro; concentration: 365 nM; relative to: no-protein control; direction: higher = stronger binding; measurement: RBNS enrichment (R)
Target: RNA binding protein fox-1 homolog 2, RRM domain, GST-SBP tag (RBFOX2, Homo sapiens, UniProt O43251-10, residues 100-194)
Notes: natural RNA segment, single round, ends assumed
Constant ends, left off below: GGGAGUUCUACAGUCCGACGAUC … UGGAAUUCUCGGGUGCCAA
Residues (chain): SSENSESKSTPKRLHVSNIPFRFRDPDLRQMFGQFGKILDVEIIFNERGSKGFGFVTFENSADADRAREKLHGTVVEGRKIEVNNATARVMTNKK
CCUGUUGGCUCACAGGGCUGAAAGGGGCUUUUGUCCUCCUGGGUCAGGGAGAACGCGGGGACCCCAGAAAGGUCAGCCUUCCUGAGGAUGGGCAACCCCCAGGUCUGCAG: 0.415
CUUUUCUUUCCAGUGUGAUUACACGUGCAUUUCCAGGUGCUGAUUUGCAGCUCUCUGUUACCUUAAUCUACUUCAAAUGUAUUUUUUUUUGUAAUCAUUCUCUAAUCCCA: 0.7
AGGUCCCAACUAAGUCUGGCCUGAGCUAAUUUAUUUGAGCGCAGAGUGUAAAAUUUAAUUCAAAAUGGUGGCUAUAAUCACUACAGAUAAAUUUCAUACUCUUUUGUCUU: 0.372
GAGGCGUGCCAGCAAGGCCAGGGAUGGCCGGAGGGCUGCGGGCUCCGCUAUUUGCAAAUGGAUGCCCCAGUGUCCGGGAUGUGUGGCCAGCUGCUGCAGGCAGGACUCCA: 0.813
ACUAAUGGGAUUCAGGCAGAAGUGUCUACCUUGAUAGGUGGGGUGGGACCACAUCCUCCACUGUGGCUGACAACGCCCUUCCAAGGGAAUAUGGAAUGAGAACAUUCAUU: 0.34
CAUAUAGUUAAAGGUCGUGACAAAAACUAUAACAUAACCUUGGACUUUUUCCACGGGGUCCUUUUAUCACAAAAUUAAACAAUUAUGAAACAUUCUGUCCACAAAGACUA: 0.42
UGAUUCUGUACAGGAGUGCUCCUAAUCGCCACUGCACCCUAAUUGCUGAGUCAUGUGCUGAGCUACUUGUAGUGGUCACUGUACACGUGGGGCUCGGGAGGGAAGAGAGC: 0.436
GAAAGGGGUUUAUGUAUAAAUAUAUUUUAUGCCUUUUUAUUACAAGUCUUGUACUCAAUGACUUUUGUCAUGACAUUUUGUUCUACUUAUACUGUAAAUUAUGCAUUAUA: 1
UAGUCUGUGAGGGAGGAACUCCCAGCAUCCCCAUUGCCCACAAAUGGAAUCCUCACUGUAUCCACUAGGAGAUUAGAAAUUAAGGUUUCUUCACUACUUCUAUGGUAGGG: 1.04
UUGGCAGUGAACUACUUUGAAGAAGUGGUCAAUGGGUUGUUGCUGCCAUGAGCAUGUACAACCUCUGGAGCUAGAAGCUCCUCAGGAAAGCCAGUUCUCCAAGUUCUUAA: 0.93
GUUUGGCUCUGUAGGAGUGAGUGGCGAUUCAAAGAUGCCGGCGUCCCGCAGUGUGCGGUUCGUGCCCUUAACCACCCGCUUCUUUGUUUCCCGCCCCUCUGCUUUCGCAG: 0.251
UUACAACUCAUGUUUACUUUUUAAAAUGAUUUAGACUGAUUUUCAGCUUUUAUUUCAUUACAAUUAAAGAUGUCUCAUGUACUUGGAAAAGUGAGCAUAUUUUUUUUUGU: 0.821

Some of these lines once more (sample 1):
GCAGUUACCAGUUUCAGCAGGCUUUGCUUUUAUACUGUUGUGAAAUUUCAUCUCUCUGUGCCGCACCUUCCUUUUUUCCAUUGUAGAUAUAAAAAGUGACUUUUGCCUCAUGAAAGAGUU: 1.52 ratio
UUUUUUACAUUUUUUGGGCAGCAAUUUAAAUGUUAUGACUAUGUAAACUACUUCUCUUGUCCGGUAAUUUUUUUCACCUAGAUUUUUUUCCCAAUUGAGAAAAAUAUAUACUAAACAAAA: 2.24 ratio
